Measurements gathered from unrelated publications.
Numbered parts are unrelated; each lists some results of a single study.

Series 1 — method: RNA Bind-n-Seq; form: RNA; medium: in vitro; concentration: not given; setting: RNA with constant flanks, ends assumed; baseline: input RNA pool; direction: higher = stronger binding
Target: RING finger protein unkempt homolog, zinc fingers 1-6, GST-SBP tag (UNK, Homo sapiens, UniProt Q9C0B0, residues 30-357)
Sequence of UniProt Q9C0B0 (30-357, looked up): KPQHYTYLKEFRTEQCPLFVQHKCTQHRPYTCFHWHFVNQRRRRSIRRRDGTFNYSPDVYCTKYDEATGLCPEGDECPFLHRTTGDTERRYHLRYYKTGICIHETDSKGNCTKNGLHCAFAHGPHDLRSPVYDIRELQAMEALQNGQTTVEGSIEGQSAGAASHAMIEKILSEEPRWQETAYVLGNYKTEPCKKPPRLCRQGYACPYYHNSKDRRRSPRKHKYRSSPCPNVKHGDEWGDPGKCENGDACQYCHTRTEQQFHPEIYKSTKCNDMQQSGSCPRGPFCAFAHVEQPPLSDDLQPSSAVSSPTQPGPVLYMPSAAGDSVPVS
Shared flanks, not repeated: GGGAGUUCUACAGUCCGACGAUC … CAACAGAGGAUUGAGCAUCA
Oligonucleotide	bound/input enrichment [ratio]
UCUCCACAAUCAAUAGGUUUCCAAGCAACAAUCAGUGCUCCACACAUGCAUGCAUAUGCGCCCGAACUUCUAUUUGAUCAGUUGCAUGAAGGAGCUAAAGCUCUUGAUGUAGGAUCUGGA	0.586
UCUGAAUCGGAGCAGGCUCUUAAAGGUACCUCUCAGAUUAAGUUACUCUCAUCUGAAGAUACCGAAGGGAUGCGACUCGUGUGUAGGCUUGCCAGAGAAGUUUUGGACAUUGCUGCUGGG	0.181
UACAGGCAAAGUUGAAUCUUCUGUCUUCCUGGCAAAAAAUGGCAUAAAAACUGAGUUGCCCGCUCAAAUUCCUGGGUUUCAUGGAAUUAUGAUUGAGGCACUACCCUGGUAGUGGCCGUU	0.205
GUGGGAGUUCUCCUACAGGAUCAUGAUGUUCGGCAGAGUGAAUUUCAGCAACUUCCGUACCACCGGAUUUUUAUCAUGCUGCUGUUGGAGCUCAAUGCACCCGAGCAUGUGUUGGAAACC	0.169
AUAGAUGAAAUUGAUGUAGAUCAGGAAGGAAUUGCAGAAAUGAUGCUGGAUGAAAAUGCUACCGCUCAAGUUCCACGCCCUGGAACGUCUUUGAAACUCCCUGGAACUAAUCAGACAGGA	0.417
CUCCAUUUCUUCCCAUGCUGUAACCCCAGGCUCCACCAGCUGUUCCCCAGUGAUGUUACCCCGCUUCCCUCUACCGUUGUCUACUGACCAUUUCCACUACAUGCCUUUCCUACCUUCCCU	0.585
GCCAAAUACGUCUGGGCAGCCACGGCCGGGGGCGUCUUUCAGAGCAUUACGCCAACCGAAACCGAUAUGAUUGUAGGAAAAGACCGGGAAGGUUUCUUUACCAACGGUUUGACUCUUGGC	0.118
GGGUUCUAUGAAUUUUUAAAUUGGUUUGAUGAAAGAGCAUGGUAUCCACUAGGAAGAACCGCCGGUGGUACUGUUUACCCAGGGUUGAUGAUAACCGCUGGCCUUAUUCAUUGGAUUUUA	0.364

Series 2 — method: RNA Bind-n-Seq; form: RNA; medium: in vitro; concentration: 1 µM; setting: whole 134-nt RNA, ends assumed; added: 150 mM KCl; baseline: input library; direction: higher = stronger binding
Target: Ras GTPase-activating protein-binding protein 1, RRM domain (G3BP1, Homo sapiens, UniProt Q13283)
Sequence of UniProt Q13283 (whole entry, looked up): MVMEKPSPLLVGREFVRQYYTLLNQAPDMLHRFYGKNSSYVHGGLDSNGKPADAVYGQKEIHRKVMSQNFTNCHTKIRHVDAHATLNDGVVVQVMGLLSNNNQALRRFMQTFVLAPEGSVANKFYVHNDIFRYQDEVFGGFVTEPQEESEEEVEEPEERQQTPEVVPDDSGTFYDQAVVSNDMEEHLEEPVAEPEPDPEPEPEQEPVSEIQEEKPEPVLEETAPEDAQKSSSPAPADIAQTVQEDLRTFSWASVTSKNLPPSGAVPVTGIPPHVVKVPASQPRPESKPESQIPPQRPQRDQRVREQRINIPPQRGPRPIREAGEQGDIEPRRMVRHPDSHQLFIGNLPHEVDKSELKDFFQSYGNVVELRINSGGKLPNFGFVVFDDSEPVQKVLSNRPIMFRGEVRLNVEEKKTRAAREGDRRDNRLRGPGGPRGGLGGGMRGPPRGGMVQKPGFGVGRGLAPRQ
Shared flanks, not repeated: GGGAGUUCUACAGUCCGACGAUC … UGGAAUUCUCGGGUGUCAAGG
Oligonucleotide	log2 enrichment
AAGUCCUGUGCUACACAUCGUAUGUACCGAAUCGGCCCCCGGCCCCCGGGCCCCCGGAAAGUAUUAUGUUACGCCGUUCGGAUCUGCACU	-0.448
ACCAUGCAGGUGGGCAUCUUUGGGAAGUCGGGCAAGGGGGGGAUAGGGAGGGGGGUAACACUUUGGGAACAGGUGGUCCCAGGUCGUUUC	-0.464
UCCUCAAGUCCUGUGCUACACAUCGUAUGUACCGAAUCGGAGGAGGGGAGGGAAAGUAUUAUGUUACGCCGUUCGGAUCUGCACUUCCAG	-0.206
UCAAGUCCUGUGCUACACAUCGUAUGUACCGAAUCGGGUGGGAAAGGGAAAGGGAAAGUAUUAUGUUACGCCGUUCGGAUCUGCACUUCC	0.638
CCUGUGCUACACAUCGUAUGUACCGAAUCGGGGUUUUUUUGGGUUUUUUUGGUUUUUUUGGAAAGUAUUAUGUUACGCCGUUCGGAUCUG	-0.169
CAAGUCCUGUGCUACACAUCGUAUGUACCGAAUCGGUUUUUGGAGGUUUUUUUGGAAAGUAUUAUGUUACGCCGUUCGGAUCUGCACUUC	-0.164
AGUCCUGUGCUACACAUCGUAUGUACCGAAUCGGGGUGGGGUGGGGAAAAAAAGGGGAAAGUAUUAUGUUACGCCGUUCGGAUCUGCACU	0.777
CAAGUCCUGUGCUACACAUCGUAUGUACCGAAUCGGAGGUUUUUUUGGUUUUUGGAAAGUAUUAUGUUACGCCGUUCGGAUCUGCACUUC	-0.316
CCUCAAGUCCUGUGCUACACAUCGUAUGUACCGAAUCGGAAGGAAGGGAAGGAAAGUAUUAUGUUACGCCGUUCGGAUCUGCACUUCCAG	-0.142

Series 3 — method: protein binding microarray; form: double-stranded DNA, one strand shown; medium: in vitro; concentration: not given; baseline: not given; direction: higher = stronger binding
Target: Histone acetyltransferase KAT6A, winged helix 1, GST fusion (KAT6A, Homo sapiens, UniProt Q92794, residues 1-85)
Setting: 8-mer, flanks averaged, mean of 2 arrays, mostly near background
Residues (chain): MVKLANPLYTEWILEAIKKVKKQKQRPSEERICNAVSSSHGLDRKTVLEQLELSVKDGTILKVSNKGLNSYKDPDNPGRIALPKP
Oligonucleotide	E-score
AGCCAATG	-0.207
TATAACAA	-0.147
CCAGGGTC	-0.197
ATCGCGTC	0.244
CAGTCTAG	-0.119
ACAGTTCA	-0.225
CATCAATA	-0.199
AACGGGCA	0.134
AATAAAAC	-0.141
TGCCGAAA	0.0962
CTCACAAA	0.000275
AGTAATCG	-0.00532
CTAATTGC	0.0188
TCTCAAGA	-0.171
GACTATTA	-0.084
AGTCGCAT	0.065
ATCTGGAG	-0.197

Series 4 — method: RNA Bind-n-Seq; form: RNA; medium: in vitro; concentration: 365 nM; baseline: no-protein control; direction: higher = stronger binding
Target: RNA binding protein fox-1 homolog 2, RRM domain, GST-SBP tag (RBFOX2, Homo sapiens, UniProt O43251-10, residues 100-194)
Setting: natural RNA segment, single round, ends assumed
Shared flanks, not repeated: GGGAGUUCUACAGUCCGACGAUC … UGGAAUUCUCGGGUGCCAA
Oligonucleotide	RBNS enrichment (R)
GUUGAGCCAAAGCCCCCAGUGUUUGUAUUUUGAAGCCAAGCUUCACUUUAAAAGUGCCUACAGAGUUCUGUAAAUGAAAACACAGCUCUGCAUGAGUUCAAACCUGUCGU	0.997
CUGUUAACCAUGUACAAUAUUUAAAAUAGGCUUAUUUUGAUGUAUCGCCUAUUAUACAAACACACAAAACAUUUUUGGAGGCCUCAGUUAUGAGUGACAGAGCUUUCUGU	0.371
GCCACUUCUGAUUUGCCAUGGUUGACAGCAUAGUGGAAGAUAGAUAUGACAGCGCUUUGUAAAGCAGGCCAGUGGCAAGCUGGCCCACAGUAGAGAAACACUGUAGUUCA	0.476
UCAGAUUGUUUUAAAGAACUGUAACUUCACAAAAGUCAAUAUUAAAAAAUAAAUUAUUUAAGAACAAUUCUGAUGCUUUCUGUUAAUGAGUGCUGGAAGAAGAUAGGCUC	0.575
UUAAUUUUAUUUUAUACAAUGUGUAGACAGUUCCCUGUUCUCUGCAUUUAGAAGUAUACACAAUAUAAAUCUGUUAAUUCUGUAAGUAAUUUUUAUAAUUAUGAUGUAAC	0.627
UCUUUGUUAUUUUCAACUGUUCUAUGCUGUGACGAUGAGGAGGAGAUGUCUGUUGGAUUCAUGUCUUUUGCUAUAGUUCAGUAGCUUCUGCUAAAUUUCACUGAUUUUAA	0.561
CACUGACCUGCCUGUAGCCCCAGUGACAGCUAGGAUGUGCAUUCUCCAGCCAUCAAGAGACUGAGUCAAGUUGUUCCUUAAGUCAGAACAGCAGACUCAGCUCUGACAUU	1.26
AAAGCCAGUUCCUAAAACUAAAACUCCAUUCUAGUCUUGGGAAGAAAAGUUUCUACUCAGAACUGGGGAAGGAGUGGAACUUAUGACUUGGGCCUCUAGGCUGUCUCUGU	0.425

Some of these lines once more (series 4):
Oligonucleotide	RBNS enrichment (R)
UCAGAUUGUUUUAAAGAACUGUAACUUCACAAAAGUCAAUAUUAAAAAAUAAAUUAUUUAAGAACAAUUCUGAUGCUUUCUGUUAAUGAGUGCUGGAAGAAGAUAGGCUC	0.575
CUGUUAACCAUGUACAAUAUUUAAAAUAGGCUUAUUUUGAUGUAUCGCCUAUUAUACAAACACACAAAACAUUUUUGGAGGCCUCAGUUAUGAGUGACAGAGCUUUCUGU	0.371
